Measured values of several laboratories.
Numbered parts are unrelated; each lists some results of a single study. Positions count from the first letter of the parent shown.

Block 1
Target: ABI1, truncated, D143A, DHFR fusion (Arabidopsis thaliana)
Technique: DHFR PCA, deep sequencing
Sample: yeast
Notes: methotrexate growth selection, single substitutions
Added: (+)-ABA 0.032 µM
Reference: wild-type fitted maximum
Reading: higher = stronger binding
Quantity: relative binding score
Parent: PYL1, truncated, DHFR fusion (Arabidopsis thaliana); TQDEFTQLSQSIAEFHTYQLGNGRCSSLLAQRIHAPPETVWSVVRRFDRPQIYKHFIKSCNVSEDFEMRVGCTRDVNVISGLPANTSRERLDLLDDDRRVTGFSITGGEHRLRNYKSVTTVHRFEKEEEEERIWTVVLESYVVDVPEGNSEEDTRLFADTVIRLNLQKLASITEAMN
Substitution = V143N; value = -4.38%
Substitution = L29H; value = 24.3%
Substitution = N177E; value = 23.9%
Substitution = G71R; value = 3.81%
Substitution = I12D; value = 4.33%
Substitution = S104Q; value = -2.51%
Substitution = C60Y; value = 6.13%

Block 2
Target: Prothrombin, mature alpha-thrombin (F2, Homo sapiens, UniProt P00734)
Technique: aptamer microarray, sandwich
Form: DNA with 2'F-ANA
Sample: in vitro
Tested at: 200 nM
Notes: whole 15-mer aptamer, many near background
Added: Cy3 exosite-II aptamer, 400 nM
Reading: higher = stronger binding
Quantity: mean fluorescence intensity
Oligonucleotide: GGTTGGTGTGGTTGG
Modification = 2'F-ANA at 1 2 3 4 5 7 9 10 14; value = 49.1 a.u.
Modification = 2'F-ANA at 1 4 5 7 9 14; value = 39.9 a.u.
Modification = 2'F-ANA at 1 2 4 7 8 9 10 11 12 13 14 15; value = 50 a.u.
Modification = 2'F-ANA at 1 5 6 8 10 11 12; value = 51.4 a.u.
Modification = 2'F-ANA at 4 6 9 10 13 14 15; value = 59.5 a.u.
Modification = 2'F-ANA at 2 3 4 5 8 9 12 14 15; value = 58.6 a.u.
Modification = 2'F-ANA at 1 2 3 6 7 8 9 11 12 13 15; value = 273 a.u.
Modification = 2'F-ANA at 1 2 3 4 7 10 11 13 14 15; value = 54.3 a.u.
Modification = 2'F-ANA at 2 3 6 8 9 10 11 12 14; value = 254 a.u.

Block 3
Target: JUN, bZIP domain (human)
Technique: DHFR protein complementation
Sample: yeast
Notes: single substitutions, most at no-binding floor
Reference: wild-type JUN-FOS pair
Reading: higher = stronger binding
Quantity: binding fitness
Parent: JUN, bZIP domain (human); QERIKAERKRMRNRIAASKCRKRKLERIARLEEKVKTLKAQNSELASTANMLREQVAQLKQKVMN; partner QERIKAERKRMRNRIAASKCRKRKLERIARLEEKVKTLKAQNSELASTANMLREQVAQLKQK
Substitution = E44A; value = -0.291 natural log
Substitution = T48W; value = -0.817 natural log
Substitution = Q41L; value = -0.316 natural log
Substitution = R30W; value = -0.292 natural log
Substitution = K34L; value = 0.0228 natural log
Substitution = A49Y; value = -0.283 natural log

Further values, each from its own experiment
Substance = PhoQ, residues 284 288 289 292 302 303 SCKMEA; target = PhoP, residues 12 14 15 18 19 FWNTL (Escherichia coli, UniProt P23836); assay = Sort-seq, refers to: YFP reporter; system = E. coli; conditions = PhoQ-PhoP variant library, added: 10 µM Mg2+; scale = reference: high Mg2+ state, higher = stronger signaling; quantity = fold induction; value = 20.3

Some of these lines once more (block 3):
Substitution = E44A; value = -0.291 natural log
Substitution = T48W; value = -0.817 natural log
